Measured values of several laboratories.
A part holds a random share of what one study measured. Positions count from the first letter of the parent shown.

Sample 1
Target: PABPC1L2, full length, GST fusion (mouse, UniProt A0ABA7IW68)
Method: RNAcompete
Form: RNA
Matrix: in vitro
Concentration: 20 nM
Notes: 7-mer, probes averaged, single round
Relative to: mean of 7-mers
Reading: higher = stronger binding
Endpoint: 7-mer Z-score
Residues (chain): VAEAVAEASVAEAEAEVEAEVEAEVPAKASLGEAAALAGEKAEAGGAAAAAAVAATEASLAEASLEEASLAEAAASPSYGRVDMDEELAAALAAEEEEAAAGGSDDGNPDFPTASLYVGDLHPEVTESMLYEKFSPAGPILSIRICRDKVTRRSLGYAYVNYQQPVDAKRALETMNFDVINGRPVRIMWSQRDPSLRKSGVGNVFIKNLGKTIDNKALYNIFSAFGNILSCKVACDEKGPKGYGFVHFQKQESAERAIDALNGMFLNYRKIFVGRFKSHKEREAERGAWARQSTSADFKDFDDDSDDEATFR
GGCUCUC: -0.148
AGAACGA: -0.0337
CAUGGAU: 0.00436
UAGGGCG: 0.258
AUACUGG: 0.00798
CGGAGUC: -0.0373
CGUGGGC: -0.0301
UGUUGAA: -0.0953
UCCCUUA: -0.427
GCAGCGA: 0.00254
CUAUUCA: -0.327
AGGUGUG: -0.0428
GUACUGA: -0.161

Sample 2
Target: CCNE1, cyclin fold, Cln2 fusion (human)
Method: yeast growth competition, sequencing
Matrix: yeast
Notes: strong parent motif
Relative to: not given
Reading: higher = stronger binding
Endpoint: normalised enrichment score
Parent: PLK5 docking peptide (human); IFRKVGQRLLTQC
L9A: 0.135
L10A: 0.545
R3A: 1.03
T11A: 1.59
V5A: 0.559
F2A: 0.872

Sample 3
Target: Transcription factor SOX-2, HMG box (Sox2, Mus musculus, UniProt P48432, residues 41-119)
Chain of UniProt P48432 (41-119, looked up): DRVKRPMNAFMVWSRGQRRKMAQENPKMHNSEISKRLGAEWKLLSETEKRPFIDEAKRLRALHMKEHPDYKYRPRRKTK
Method: Spec-seq
Form: double-stranded DNA, one strand shown
Matrix: in vitro
Concentration: not given
Notes: whole probe, mean of replicates
Relative to: not given
Reading: lower = stronger binding
Endpoint: relative binding energy
Constant ends, left off below: GAGTCGTCTCGTCAGCAC … CCGTAGAGCACTCAGGTC
AGTGGTT: -0.0182 ln ratio
AAGAGTT: -0.0554 ln ratio
TCCTGTT: 0.48 ln ratio
CATGCGC: 0.437 ln ratio
CATCGGT: 0.678 ln ratio
CATATGA: 0.00929 ln ratio
GATGGTT: 0.649 ln ratio
CATCTCT: 0.74 ln ratio
CATATGC: 0.313 ln ratio
CATTTAA: -0.889 ln ratio
CATCACA: 0.54 ln ratio
AGTCGTT: 0.402 ln ratio
GGGAGTT: 1.46 ln ratio
CCTAGTT: 0.502 ln ratio
GAGGGTT: 1.53 ln ratio
CATCTCC: 1.12 ln ratio

Sample 4
Target: Interferon regulatory factor 7, full length, phosphomimetic (IRF7, Homo sapiens, UniProt Q92985, residues 1-503, S101K/S471D/S472D/S475D/S476D/S477D/S483D/S484D/S487D)
Chain of UniProt Q92985 (whole entry, unmodified, looked up): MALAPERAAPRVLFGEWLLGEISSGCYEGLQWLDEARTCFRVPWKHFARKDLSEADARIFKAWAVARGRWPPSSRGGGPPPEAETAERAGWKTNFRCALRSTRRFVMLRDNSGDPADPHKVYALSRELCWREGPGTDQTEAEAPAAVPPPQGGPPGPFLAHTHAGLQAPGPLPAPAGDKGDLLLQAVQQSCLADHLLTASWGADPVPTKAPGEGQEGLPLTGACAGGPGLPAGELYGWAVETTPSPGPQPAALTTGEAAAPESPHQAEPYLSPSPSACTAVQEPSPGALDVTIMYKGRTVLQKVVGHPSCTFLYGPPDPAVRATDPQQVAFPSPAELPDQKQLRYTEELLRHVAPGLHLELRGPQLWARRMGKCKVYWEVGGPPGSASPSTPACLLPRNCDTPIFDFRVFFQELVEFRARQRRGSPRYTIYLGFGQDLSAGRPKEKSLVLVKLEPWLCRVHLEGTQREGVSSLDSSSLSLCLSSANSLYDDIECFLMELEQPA
Method: protein-binding microarray
Form: double-stranded DNA, one strand shown
Matrix: in vitro
Concentration: 250 nM
Notes: 60-bp whole probe
With: salmon DNA 0.4 mg/ml
Relative to: random background probes
Reading: higher = stronger binding
Endpoint: log fluorescence
Constant ends, left off below: GCCTAGCAC … GTCTTGATTCGCTTGACGCTGCTG
GACGAACTGGGGATTGGAGACGTGCTA: -0.556 z-score
GAAGTTCTAAATATCTTTGTGTGCTAG: -0.314 z-score
AACGGACTGGGTCTCGGGACGTGCTAG: -0.0292 z-score
TCACTTTTCCCCCTAGTACTGTGCTAG: 1.77 z-score
TTAGAACTGAGTATCGAATAGTGCTAG: 0.152 z-score
GCCGGACTGGACTTTCGGGACGTGCTA: -0.574 z-score
GACGGTTTCGGTTCAGGGACGTGCTAG: 13.7 z-score
GGCGAACTGGGGTATCGAGACGTGCTA: -0.965 z-score
AACGAACTGAGTATCGAGACGTGCTAG: -0.031 z-score
GACCGTCTCCTTCTCCTGACGTGCTAG: 0.617 z-score
TCATGATCCATTTTGGTACTGTGCTAG: 0.361 z-score
TTAGGTTTCGGGTATCGATTAGTGCTA: 7.9 z-score
TTAGGTATAGGTCTCGGTTAGTGCTAG: 1.11 z-score

Sample 5
Target: Fragile X messenger ribonucleoprotein 1, C-terminal low-complexity region (Fmr1, Mus musculus, UniProt P35922)
Method: RNA Bind-n-Seq
Form: RNA
Matrix: in vitro
Concentration: 200 nM
Notes: whole 134-nt RNA, ends assumed
With: 150 mM KCl
Relative to: input library
Reading: higher = stronger binding
Endpoint: log2 enrichment
Constant ends, left off below: GGGAGUUCUACAGUCCGACGAUC … UGGAAUUCUCGGGUGUCAAGG
CAAGUCCUGUGCUACACAUCGUAUGUACCGAAUCGGGUUUUUGGGAAAGGGUGGGAAAGUAUUAUGUUACGCCGUUCGGAUCUGCACUUC: 1.04
GUCCUGUGCUACACAUCGUAUGUACCGAAUCGGGUUUUUGGGGUUUUUGGGGUUUUUGGAAAGUAUUAUGUUACGCCGUUCGGAUCUGCA: 0.0719
AAGUCCUGUGCUACACAUCGUAUGUACCGAAUCGGGUUUUUGGGUUUGGGUUUGGGAAAGUAUUAUGUUACGCCGUUCGGAUCUGCACUU: 0.807
AAGUCCUGUGCUACACAUCGUAUGUACCGAAUCGGGGUUUGGGUUUGGGGUUUGGGAAAGUAUUAUGUUACGCCGUUCGGAUCUGCACUU: 0.738
CUCAAGUCCUGUGCUACACAUCGUAUGUACCGAAUCGGCCGGGCCGGCCGGGGAAAGUAUUAUGUUACGCCGUUCGGAUCUGCACUUCCA: -0.429
GCAGGAAGUAAAAACAAAUGGAAAUGCUUCGGAUAGUGGCAGGGGUGGGGGUUGCUAAGCAAAGGGUGGGAUGGGAGUGGGUAAAGAGUU: 0.458
AAGUCCUGUGCUACACAUCGUAUGUACCGAAUCGGGUGGGUUUUUUUGGGAAAGGGAAAGUAUUAUGUUACGCCGUUCGGAUCUGCACUU: 0.428
UGGGAGGUGGAUUUUGUUUAUUUUUUUAGCUCAUUUCCAGGCGUGGGAAUUUUUUUUUAAUAUGUGUCAUGAAUAAAGUUGUUUUUGAAA: -0.482
CUCAAGUCCUGUGCUACACAUCGUAUGUACCGAAUCGGGUGGGAGGGAAAGGGAAAGUAUUAUGUUACGCCGUUCGGAUCUGCACUUCCA: 1.18

Sample 6
Target: Prothrombin, mature alpha-thrombin (F2, Homo sapiens, UniProt P00734)
Method: aptamer microarray, sandwich
Form: DNA with 2'F-ANA
Matrix: in vitro
Concentration: 200 nM
Notes: whole 15-mer aptamer, many near background
With: Cy3 exosite-II aptamer, 400 nM
Reading: higher = stronger binding
Endpoint: mean fluorescence intensity
Strand: GGTTGGTGTGGTTGG
2'F-ANA at 1 3 4 7 8 9 10 11 12 13 14 15: 90.4 a.u.
2'F-ANA at 2 3 4 5 6 7 15: 89.1 a.u.
2'F-ANA at 2 3 5 6 7 9 11 14 15: 51 a.u.
2'F-ANA at 3 7 9 10 15: 558 a.u.
2'F-ANA at 2 3 4 5 9 13: 61.8 a.u.
2'F-ANA at 3 4 7 9: 766 a.u.
2'F-ANA at 2 4 6 8 9 12: 584 a.u.
2'F-ANA at 1 4 5 11: 48.4 a.u.
2'F-ANA at 1 5 7 12 14: 45.3 a.u.
2'F-ANA at 2 4 8 9 10 13 14 15: 68.2 a.u.
2'F-ANA at 1 4 6 7 8 10 11: 67.7 a.u.
2'F-ANA at 1 4 11 12 14: 55.2 a.u.
2'F-ANA at 2 3 5 6 7 8 9 11 12: 177 a.u.
2'F-ANA at 2 3 7 10 12 13 14 15: 290 a.u.
2'F-ANA at 1 2 3 4 5 6 8 9 10 11 12 14 15: 54.3 a.u.
2'F-ANA at 5 6 7 8 10 11 12 13 14: 44.7 a.u.
